Measured values from different studies.
± gives the spread as reported.
EGFR: Epidermal growth factor receptor (EGFR, Homo sapiens, UniProt P00533)
Serotonin N-acetyltransferase: Serotonin N-acetyltransferase (Ovis aries, UniProt Q29495)
Sequence of UniProt Q29495 (whole entry, looked up): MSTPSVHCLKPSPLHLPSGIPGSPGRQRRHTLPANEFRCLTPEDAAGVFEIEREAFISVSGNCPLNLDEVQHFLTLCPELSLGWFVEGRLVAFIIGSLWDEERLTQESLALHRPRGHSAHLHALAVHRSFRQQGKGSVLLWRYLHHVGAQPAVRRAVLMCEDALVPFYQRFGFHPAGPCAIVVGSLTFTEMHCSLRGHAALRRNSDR
F12: Coagulation factor XII (F12, Homo sapiens, UniProt P00748)
Sequence of UniProt P00748 (whole entry, looked up): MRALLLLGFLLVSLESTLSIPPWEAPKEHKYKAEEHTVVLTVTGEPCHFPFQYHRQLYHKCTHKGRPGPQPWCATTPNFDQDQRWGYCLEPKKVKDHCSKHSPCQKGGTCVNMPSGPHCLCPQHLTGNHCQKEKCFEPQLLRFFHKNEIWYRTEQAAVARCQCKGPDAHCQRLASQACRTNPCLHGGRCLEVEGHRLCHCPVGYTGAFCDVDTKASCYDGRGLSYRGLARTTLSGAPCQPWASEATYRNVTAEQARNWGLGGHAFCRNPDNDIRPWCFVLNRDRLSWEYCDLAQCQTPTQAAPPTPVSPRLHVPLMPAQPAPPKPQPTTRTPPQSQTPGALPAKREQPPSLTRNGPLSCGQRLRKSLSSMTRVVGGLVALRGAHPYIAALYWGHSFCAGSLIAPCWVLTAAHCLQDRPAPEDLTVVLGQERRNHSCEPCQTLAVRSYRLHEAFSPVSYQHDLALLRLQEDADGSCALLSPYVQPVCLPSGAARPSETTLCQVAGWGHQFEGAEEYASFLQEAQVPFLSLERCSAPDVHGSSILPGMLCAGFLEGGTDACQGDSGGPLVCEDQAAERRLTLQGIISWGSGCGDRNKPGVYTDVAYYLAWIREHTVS
Urease subunit alpha: Urease subunit alpha (Sporosarcina pasteurii, UniProt P41020)
Sequence of UniProt P41020 (whole entry, looked up): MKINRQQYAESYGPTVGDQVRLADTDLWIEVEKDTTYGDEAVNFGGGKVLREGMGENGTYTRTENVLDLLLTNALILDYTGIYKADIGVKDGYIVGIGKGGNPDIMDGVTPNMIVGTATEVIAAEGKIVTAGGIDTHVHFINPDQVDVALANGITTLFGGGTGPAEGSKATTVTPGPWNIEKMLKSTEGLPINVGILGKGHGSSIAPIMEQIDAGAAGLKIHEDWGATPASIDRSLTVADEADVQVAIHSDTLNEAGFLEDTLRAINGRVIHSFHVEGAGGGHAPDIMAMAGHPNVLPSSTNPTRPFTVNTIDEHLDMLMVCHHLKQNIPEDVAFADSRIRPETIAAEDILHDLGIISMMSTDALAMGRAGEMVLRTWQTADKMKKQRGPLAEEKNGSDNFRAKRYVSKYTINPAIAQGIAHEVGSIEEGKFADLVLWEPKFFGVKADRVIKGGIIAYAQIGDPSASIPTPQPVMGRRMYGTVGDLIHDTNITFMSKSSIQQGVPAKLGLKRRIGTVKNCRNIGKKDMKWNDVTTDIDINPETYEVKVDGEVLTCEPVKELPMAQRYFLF
PSMB7: Proteasome subunit beta type-7 (PSMB7, Homo sapiens, UniProt Q99436)
Sequence of UniProt Q99436 (whole entry, looked up): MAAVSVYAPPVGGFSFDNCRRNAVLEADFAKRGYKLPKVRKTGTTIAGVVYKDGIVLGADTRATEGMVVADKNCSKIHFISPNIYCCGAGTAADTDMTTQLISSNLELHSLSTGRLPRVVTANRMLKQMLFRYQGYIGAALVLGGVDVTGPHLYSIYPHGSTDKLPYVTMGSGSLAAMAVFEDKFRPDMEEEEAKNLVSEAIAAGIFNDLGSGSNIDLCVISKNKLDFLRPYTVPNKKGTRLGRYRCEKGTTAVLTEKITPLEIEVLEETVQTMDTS
Pancreatic alpha-amylase: Pancreatic alpha-amylase (Homo sapiens, UniProt P04746)
Sequence of UniProt P04746 (whole entry, looked up): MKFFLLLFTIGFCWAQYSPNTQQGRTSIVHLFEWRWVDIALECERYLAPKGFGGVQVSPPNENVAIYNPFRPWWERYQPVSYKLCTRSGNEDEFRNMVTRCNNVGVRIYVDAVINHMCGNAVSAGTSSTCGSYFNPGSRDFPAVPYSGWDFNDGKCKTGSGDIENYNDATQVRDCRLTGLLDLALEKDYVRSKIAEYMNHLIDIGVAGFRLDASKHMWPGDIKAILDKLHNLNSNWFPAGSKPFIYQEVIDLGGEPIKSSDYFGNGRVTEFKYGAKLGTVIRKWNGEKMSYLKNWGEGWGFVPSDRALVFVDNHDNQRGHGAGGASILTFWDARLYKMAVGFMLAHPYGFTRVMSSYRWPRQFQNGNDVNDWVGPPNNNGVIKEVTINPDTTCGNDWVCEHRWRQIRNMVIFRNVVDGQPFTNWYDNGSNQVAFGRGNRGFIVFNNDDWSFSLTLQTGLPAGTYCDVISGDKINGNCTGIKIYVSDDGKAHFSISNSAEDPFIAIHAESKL
Low molecular weight phosphotyrosine protein phosphatase isoform A: Low molecular weight phosphotyrosine protein phosphatase, isoform A (Mus musculus, UniProt Q9D358)
Sequence of UniProt Q9D358 (whole entry, looked up): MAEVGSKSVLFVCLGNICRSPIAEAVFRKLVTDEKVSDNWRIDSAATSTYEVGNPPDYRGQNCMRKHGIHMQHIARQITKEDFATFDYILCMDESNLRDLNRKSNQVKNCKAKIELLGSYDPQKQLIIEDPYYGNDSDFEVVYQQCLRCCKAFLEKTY
Sequence of UniProt Q6ZN17 (whole entry, looked up): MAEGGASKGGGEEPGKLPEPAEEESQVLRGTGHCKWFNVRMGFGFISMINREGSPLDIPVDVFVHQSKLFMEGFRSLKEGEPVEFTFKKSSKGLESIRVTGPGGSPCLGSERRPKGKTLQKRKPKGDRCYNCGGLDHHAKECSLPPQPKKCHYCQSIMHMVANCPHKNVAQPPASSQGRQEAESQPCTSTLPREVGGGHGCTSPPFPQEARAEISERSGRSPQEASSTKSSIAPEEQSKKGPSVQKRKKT
Sequence of UniProt O94921 (whole entry, looked up): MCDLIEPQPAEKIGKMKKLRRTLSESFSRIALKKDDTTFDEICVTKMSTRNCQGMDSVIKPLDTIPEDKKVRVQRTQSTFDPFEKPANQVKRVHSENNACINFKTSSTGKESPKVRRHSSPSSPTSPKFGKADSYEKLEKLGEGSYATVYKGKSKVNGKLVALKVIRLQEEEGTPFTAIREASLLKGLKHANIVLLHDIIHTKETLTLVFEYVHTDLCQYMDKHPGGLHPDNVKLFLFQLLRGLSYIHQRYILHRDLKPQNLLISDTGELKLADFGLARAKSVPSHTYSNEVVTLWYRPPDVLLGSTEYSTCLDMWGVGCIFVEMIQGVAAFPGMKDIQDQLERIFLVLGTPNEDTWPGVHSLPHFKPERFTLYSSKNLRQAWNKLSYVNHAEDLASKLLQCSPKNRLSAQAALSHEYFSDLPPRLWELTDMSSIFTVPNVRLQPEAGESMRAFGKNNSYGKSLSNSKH
Sequence of UniProt Q02750 (whole entry, looked up): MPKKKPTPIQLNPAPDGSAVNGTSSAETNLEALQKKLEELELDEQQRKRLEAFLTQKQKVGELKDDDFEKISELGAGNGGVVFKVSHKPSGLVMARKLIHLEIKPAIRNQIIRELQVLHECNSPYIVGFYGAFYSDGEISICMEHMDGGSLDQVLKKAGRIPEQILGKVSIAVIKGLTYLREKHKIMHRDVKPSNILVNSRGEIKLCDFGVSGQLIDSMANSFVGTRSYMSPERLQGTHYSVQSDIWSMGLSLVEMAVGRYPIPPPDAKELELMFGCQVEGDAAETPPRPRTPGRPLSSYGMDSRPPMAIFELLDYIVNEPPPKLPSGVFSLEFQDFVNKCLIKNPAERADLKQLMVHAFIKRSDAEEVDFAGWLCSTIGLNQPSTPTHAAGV

| Compound | target | test | system | setting | IC50 |
| --- | --- | --- | --- | --- | --- |
| CC[C@@H]1[C@H](F)C(=O)N[C@@H]1COc1nccc2cc(C(N)=O)c(OC)cc12 | CDK14 (Homo sapiens, UniProt O94921) | ATP-site binding, ActivX KiNativ profiling | THP-1 cell lysate | Lys2 PFTAIRE1 probe site | > 5 µM |
| CC(C)(C)n1nc(-c2ccc3nc(OC4CC4)ccc3c2)c(C(N)=O)c1N | EGFR |  |  |  | > 10 µM |
| CC(=O)c1ccc2cc(S(=O)(=O)Nc3ccc(F)cc3)ccc2c1 | STAT3 (Homo sapiens, UniProt P40763) | tyrosine phosphorylation, inhibitor, ELISA, measured: phospho-Tyr705 |  |  | 3.59 µM |
| COc1cc(C(=O)NS(=O)(=O)c2ccccc2C)ccc1Cc1cn(C)c2ccc(NC(=O)OC3CCCC3)cc12 | LRRC8A/LRRC8C (Homo sapiens, UniProt Q8IWT6+Q8TDW0, L134K/L136K) | ion current, inhibitor, whole-cell patch clamp | HCT116 LRRC8-/- transfected | at +100 mV | 3.4 µM |
| [Fe+2].c1ccc(CN(CCN(Cc2ccccn2)Cc2ccccn2)Cc2ccccn2)cc1 | Proteasome subunit beta type-7, in 20S proteasome (PSMB7, Homo sapiens, UniProt Q99436) | trypsin-like activity, inhibitor, purified 20S proteasome |  | pH 7.4, with: 20 µM Bz-VGR-AMC | > 1000 µM |
| OCc1ccc(Nc2ccc3c(Nc4cccc(C(F)(F)F)c4)ncnc3c2)cc1 | EGFR | enzyme activity, inhibitor |  |  | 0.00251 µM |
| COc1cc(/C=C/C(=O)CC(=O)/C=C/c2ccc(O)c(OC)c2)ccc1O | Karenia brevis thioredoxin reductase | enzyme activity, inhibitor |  |  | 3 µM |
| O=C(O)CCCCCN1C(=O)N/C(=C2\C(=O)N(Cc3ccc(F)cc3)c3ccccc32)C1=O | Serotonin N-acetyltransferase | inhibitor, stopped-flow UV |  | with: serotonin 100 µM, acetyl-CoA 100 µM | 31 ± 12 µM |
| COc1ccc(F)c(CNC(=O)c2cn(Cc3ccc(Cn4ccccc4=O)cc3)nc2CN(C)C)c1F | F12 |  |  |  | > 40 µM |
| O=C(NNS(=O)(=O)c1ccccc1)c1ccc2oc3ccccc3c2c1 | BCAT1 (Homo sapiens, UniProt P54687) | inhibitor |  |  | 1.53 µM |
| Cc1nc2ccc(Cl)cc2c(=O)n1NC1=NC(=O)CS1 | MAL12 (Saccharomyces cerevisiae S288c, UniProt P53341) | enzyme activity, inhibitor | Saccharomyces cerevisiae | with: 4-nitrophenyl glucopyranoside | 53.4 ± 2.12 µM |
| C=CC(=O)N1CCC([C@@H]2CCNc3c(C(N)=O)c(-c4ccc(Oc5ccccc5)cc4)nn32)CC1 | MAP2K1 (Homo sapiens, UniProt Q02750) |  |  |  | 2.04 µM |
| COc1nc(N)nc(N)c1OCCCOc1ccccc1CCC(=O)O | uncharacterized protein (Mycobacteroides abscessus, UniProt B1MD46) | enzyme activity, inhibitor, NADPH fluorescence |  | with: 1 nM enzyme | > 5 µM |
| Fc1ccc(/C=C/C=N/NC(=S)Nc2cccc(Cl)c2Cl)cc1 | Urease subunit alpha | enzyme activity, indophenol method |  |  | 29 ± 0.5 µM |
| CC(C)(C)NC(=O)CC[C@H](NC(=O)C(=O)c1c[nH]c2ccccc12)C(=O)NCc1cccc(B(O)O)c1 | PSMB7 | inhibitor |  |  | > 33.3 µM |
| CC[C@H](C)[C@H](NC(=O)[C@H](CS)NC(=O)[C@H](CCC(=O)O)NC(=O)[C@H](C)NC(=O)[C@@H](NC(=O)[C@@H](N)CCCNC(=N)N)[C@@H](C)CC)C(=O)N[C@@H](CC(C)C)C(=O)NCC(=O)N[C@@H](CCSC)C(=O)O | HLA class I histocompatibility antigen, B alpha chain, allele B*08:01 (Homo sapiens, UniProt P01889) | binding, competitor, radioligand competition |  | two days, room temperature, HLA-B*08:01 | > 40 µM |
| CN1CCN(c2ccc(Nc3ncc4cc(C#N)c(=O)n(C5CCCC5)c4n3)cc2)CC1 | PAK5 (Homo sapiens, UniProt Q9P286) |  |  |  | > 10 µM |
| CCc1ccc(/C=N/n2c(C)nc3ccc(C)cc3c2=O)s1 | Pancreatic alpha-amylase | enzyme activity, inhibitor |  |  | 832 ± 22.7 µM |

| Compound | target | test | system | setting | IC50 |
| --- | --- | --- | --- | --- | --- |
| Cc1ccc(NC(=S)N/N=C/C=C/c2ccc(F)cc2)cc1 | Urease subunit alpha | enzyme activity, indophenol method |  |  | 10.2 ± 0.4 µM |
| Cc1cnc(-c2ccc(-c3ccc(NC(=O)Nc4c(F)cc(F)cc4F)cc3F)c3c2C(=O)NC3)[nH]1 | DDR1 (Homo sapiens, UniProt Q08345) | enzyme activity, inhibitor, mobility shift |  | with: ATP 1 mM | 0.085 µM |
| Cn1cc2c(C(=O)O)ccc(NS(=O)(=O)c3ccc(OCC4CCC4)c(Cl)c3)c2n1 | HSD17B2 (Homo sapiens, UniProt P37059) | enzyme activity, inhibitor |  | with: β-estradiol | > 100 µM |
| Fc1cccc(-c2cc(NCCCN3CCCCC3)c3ccccc3n2)c1 | Low molecular weight phosphotyrosine protein phosphatase isoform A | enzyme activity, inhibitor |  | with: OMFP substrate | 1.84 µM |
| Cc1cnn(Cc2ccc(Cn3c(C)cc(C(=O)NCc4ccc(CN)cc4)c3C)cc2)c1 | F12 |  |  |  | > 10 µM |
| Cc1ccc(S(=O)(=O)Nc2ccc(F)cc2NS(=O)(=O)c2ccc(C)cc2)cc1 | Protein lin-28 homolog B (LIN28B, Homo sapiens, UniProt Q6ZN17) | pre-let-7d binding to Lin28B, inhibitor |  |  | 14.4 µM |
| Fc1ccc2nc(-c3ccccc3)cc(NCCCN3CCCCC3)c2c1 | Low molecular weight phosphotyrosine protein phosphatase isoform A | enzyme activity, inhibitor |  | with: OMFP substrate | 22 µM |
| C[C@@H]1CN(C(=O)c2ccc(NC(=O)c3cc(O[C@H](C)c4c(Cl)ccc(F)c4Cl)c(N)nn3)cc2)C[C@H](C)N1 | ALK (Homo sapiens, UniProt Q9UM73, R1275Q) | enzyme activity, inhibitor |  | with: 1 mM ATP | 0.0031 µM |
| Clc1ccccc1-c1cc(NCCCN2CCCCC2)c2ccccc2n1 | Low molecular weight phosphotyrosine protein phosphatase isoform A | enzyme activity, inhibitor |  | with: OMFP substrate | 11.6 µM |
| Cc1ncc(C(=O)N[C@@H](CC2CCC(C)CC2)C(=O)N[C@@H](CC(C)C)C(=O)N[C@H](/C=C/S(C)(=O)=O)Cc2ccc(CN)cc2)s1 (some centres unmarked) | PSMB7 | inhibitor, biochemical |  |  | 0.383 µM |
| O=C(O)CCCCN1C(=O)/C(=C2/C(=O)N(Cc3ccc(F)cc3)c3ccccc32)SC1=S | Serotonin N-acetyltransferase | inhibitor, stopped-flow UV |  | with: serotonin 100 µM, acetyl-CoA 100 µM | 30 µM |
| Cc1nc2ccccc2c(=O)n1NC(=O)CSc1nc2ccccc2c(=O)n1-c1ccccc1 | Pancreatic alpha-amylase | enzyme activity, inhibitor |  |  | 430 ± 8.49 µM |
| COCc1nn(Cc2ccc(Cn3ccccc3=O)cc2)cc1C(=O)NCc1nccc(OC(C)C)c1F | F12 |  |  |  | > 40 µM |
| Cc1ccc2nc(-c3ccccc3)cc(NCCCN3CCCCC3)c2c1 | Low molecular weight phosphotyrosine protein phosphatase isoform A | enzyme activity, inhibitor |  | with: OMFP substrate | > 80 µM |
| O=C(O)CCCCCN1C(=O)/C(=C2/C(=O)N(Cc3ccc(F)cc3)c3ccccc32)NC1=S | Serotonin N-acetyltransferase | inhibitor, stopped-flow UV |  | with: serotonin 100 µM, acetyl-CoA 100 µM | 56 ± 6 µM |
| O=C(O)c1ccc(-c2cc(NCCCN3CCCCC3)c3ccccc3n2)cc1 | Low molecular weight phosphotyrosine protein phosphatase isoform A | enzyme activity, inhibitor |  | with: OMFP substrate | 2.1 µM |
| Fc1ccc(/C=C/C=N/NC(=S)NCc2ccccc2)cc1 | Urease subunit alpha | enzyme activity, indophenol method |  |  | 2.7 ± 0.5 µM |

Excerpt of the above:
| Compound | target | test | system | setting | IC50 |
| --- | --- | --- | --- | --- | --- |
| Clc1ccccc1-c1cc(NCCCN2CCCCC2)c2ccccc2n1 | Low molecular weight phosphotyrosine protein phosphatase isoform A | enzyme activity, inhibitor |  | with: OMFP substrate | 11.6 µM |
| Cc1ncc(C(=O)N[C@@H](CC2CCC(C)CC2)C(=O)N[C@@H](CC(C)C)C(=O)N[C@H](/C=C/S(C)(=O)=O)Cc2ccc(CN)cc2)s1 (some centres unmarked) | PSMB7 | inhibitor, biochemical |  |  | 0.383 µM |
| O=C(O)CCCCN1C(=O)/C(=C2/C(=O)N(Cc3ccc(F)cc3)c3ccccc32)SC1=S | Serotonin N-acetyltransferase | inhibitor, stopped-flow UV |  | with: serotonin 100 µM, acetyl-CoA 100 µM | 30 µM |
| Cc1nc2ccccc2c(=O)n1NC(=O)CSc1nc2ccccc2c(=O)n1-c1ccccc1 | Pancreatic alpha-amylase | enzyme activity, inhibitor |  |  | 430 ± 8.49 µM |
